Experimental data gathered from unrelated publications.
Each line is one published result; not all experiments were run side by side.
Target: Phosphatidylinositol 4,5-bisphosphate 3-kinase catalytic subunit alpha isoform (PIK3CA, Homo sapiens, UniProt P42336)
UniProt P42336, sequence (whole entry, looked up): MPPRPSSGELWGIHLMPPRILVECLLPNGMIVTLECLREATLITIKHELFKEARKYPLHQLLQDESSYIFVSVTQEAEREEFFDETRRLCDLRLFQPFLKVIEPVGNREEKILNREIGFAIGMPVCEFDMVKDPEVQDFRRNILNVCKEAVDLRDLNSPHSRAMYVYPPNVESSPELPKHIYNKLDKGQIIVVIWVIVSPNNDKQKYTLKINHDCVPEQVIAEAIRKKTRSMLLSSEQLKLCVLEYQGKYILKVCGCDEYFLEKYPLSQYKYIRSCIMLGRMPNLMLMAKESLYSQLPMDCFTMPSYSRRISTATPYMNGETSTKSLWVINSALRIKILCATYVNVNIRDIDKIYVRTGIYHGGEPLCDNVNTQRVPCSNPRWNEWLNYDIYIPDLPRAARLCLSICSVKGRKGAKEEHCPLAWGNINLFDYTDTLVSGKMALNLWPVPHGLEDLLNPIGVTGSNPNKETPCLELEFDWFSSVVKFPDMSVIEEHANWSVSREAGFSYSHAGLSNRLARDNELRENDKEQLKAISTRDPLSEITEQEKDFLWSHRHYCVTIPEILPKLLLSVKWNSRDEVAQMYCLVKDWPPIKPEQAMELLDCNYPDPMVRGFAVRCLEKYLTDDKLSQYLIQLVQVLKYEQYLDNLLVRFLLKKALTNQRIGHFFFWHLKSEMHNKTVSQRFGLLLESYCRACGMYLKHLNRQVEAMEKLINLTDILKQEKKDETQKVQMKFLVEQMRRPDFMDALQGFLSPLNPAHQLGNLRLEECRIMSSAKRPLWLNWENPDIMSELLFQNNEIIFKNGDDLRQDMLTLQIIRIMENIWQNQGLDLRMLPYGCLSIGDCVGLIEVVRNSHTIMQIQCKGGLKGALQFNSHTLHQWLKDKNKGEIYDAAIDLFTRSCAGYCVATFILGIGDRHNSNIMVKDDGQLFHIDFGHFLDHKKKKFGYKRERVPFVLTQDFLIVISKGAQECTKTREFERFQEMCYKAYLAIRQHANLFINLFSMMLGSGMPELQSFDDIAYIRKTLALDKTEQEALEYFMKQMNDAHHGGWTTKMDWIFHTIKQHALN

For COc1ccccc1/C=C1\C(=O)N(C)c2ccc(N(C)c3nc(C)nc4ccccc34)cc21, the IC50 was 0.0132 µM (enzyme activity, inhibitor, ADP detection).
CN1C(=O)/C(=N\c2ccc(Cl)cc2Br)c2ccccc21 gave an IC50 of 0.067 µM (enzyme activity, inhibitor, ADP detection).
The Ki of Nc1ncc(-c2nc(N3CCOCC3)nc(N3CCN(C(=O)CCC(=O)NCCOCCOCCOCC(=O)Nc4cccc5c4C(=O)N(C4CCC(=O)NC4=O)C5=O)CC3)n2)c(C(F)F)n1 (stereo not shown) is reported as 0.00499 µM (ligand displacement, TR-FRET).
CN(C)c1ccc(CCC(=O)N2C(=O)C3(NC(c4ccc(F)cc4)C4(C(=O)Nc5ccccc54)N3Cc3ccc(F)cc3)c3ccccc32)cc1 (stereo not shown) gave an IC50 of 0.419 µM (enzyme activity, inhibitor, ADP detection).
With COc1ccccc1/C=C1\C(=O)Nc2ccc(Nc3nc(C)nc4ccccc34)cc21 the IC50 was 0.0207 µM (enzyme activity, inhibitor, ADP detection).
Nc1ncc(-c2nc(N3CCOCC3)nc(N3CCN(C(=O)CCC(=O)NCCCCCCCCCCCCNc4cccc5c4C(=O)N(C4CCC(=O)NC4=O)C5=O)CC3)n2)c(C(F)F)n1 (stereo not shown) gave a Ki of 0.00984 µM (ligand displacement, TR-FRET).
O=C1/C(=N\c2ccc(Cl)cc2)c2ccccc2N1Cc1ccccc1 has an IC50 of 0.0642 µM (enzyme activity, inhibitor, ADP detection).
Nc1ncc(-c2nc(N3CCOCC3)nc(N3CCN(C(=O)CCC(=O)N4CCC(CC5CCN(c6cc7c(cc6F)C(=O)N(C6CCC(=O)NC6=O)C7=O)CC5)CC4)CC3)n2)c(C(F)F)n1 (stereo not shown) has a Ki of 0.00116 µM (ligand displacement, TR-FRET).
The IC50 of COc1ccccc1/C=C1\C(=O)N(C)c2ccc(Nc3nc(C)nc4ccccc34)cc21 is reported as 0.0193 µM (enzyme activity, inhibitor, ADP detection).
With Cc1nc2ccc(C(=O)N[C@@H](Cc3ccc(C#Cc4ccc5nccnc5c4)cc3)C(=O)NCCC(=O)N[C@@H](CC(=O)N[C@@H](CCCCNC(=S)Nc3ccc4c(c3)C(=O)OC43c4ccc(O)cc4Oc4cc(O)ccc43)C(=O)O)C(=O)O)cc2nc1C the Kd was 0.915 µM (binding, SPR).
